Published values gathered from unrelated publications.
A part holds a random share of what one study measured. Values joined by “and” are separate records of one study, mostly repeats; a detail may differ.

Series 1 — species: human; sample: microsomes or S9; tested at: 2 µM; time: 0.5 h
For Cc1ccc(-c2nnc(C(C)N3CCc4sccc4C3)o2)cc1 (stereo not shown), the remaining compound was 4.39%.
For Cc1ccc(O[C@H]2COCC[C@H]2NC(=O)c2cnn[nH]2)cn1, the remaining compound was 86%.
For COc1nc(NC(C)C)nc(N2C(=N)NC(=O)C2C)n1 (stereo not shown), the remaining compound was > 99.9%.
The remaining compound of c1ccc(/N=c2/nc(N3CCN(C(c4ccccc4)c4ccccc4)CC3)nc(Nc3ccccc3)[nH]2)cc1 is reported as > 99%.
The remaining compound of CCN1CCN(C(=O)c2cc3c(=O)n4cc(C)ccc4nc3n2C)CC1 is reported as 94.2%.
For CC(C)(O)CC[C@@H](O)[C@](C)(O)C1CC[C@@]2(O)C3=CC(=O)C4C[C@@H](O)[C@@H](O)C[C@]4(C)C3CC[C@]12C (stereo partly shown), the remaining compound was 76.2%.

Series 2 — method: KINOMEscan; tested at: 10 µM; reference: DMSO control; direction: lower = stronger binding
SMILES: COc1cc(C(=O)N2CCC(N3CCN(C)CC3)CC2)ccc1Nc1ncc2c(n1)N(C)c1ccccc1C(=O)N2C
The binding was 100% (RIPK2).
It gave 86% for binding (GRK4).
PIK3CA — binding: 74%.
It gave 100% for binding (ASK2).

Mixed results
Cc1c(OCC(F)(F)F)ccnc1C[S+]([O-])c1nc2ccccc2[nH]1 (stereo not shown) — result for “nuclear SOX9 intensity”: 98.8 % of DMSO and 96.9 % of DMSO (mouse MPNST tumor cells; high-content immunofluorescence imaging, item: nuclear SOX9; 10 µM, 12 h, mean of 2 replicates; reference: DMSO control, higher = more nuclear SOX9).
CN(C(=O)c1ccn2ncc(-c3ccc(C(N)=O)cc3)c2c1)c1ccc(C#N)cn1: “half-life of parasite killing” 19.4 h (Cryptosporidium parvum; time-kill, one-phase decay fit; nanoluciferase-expressing; 20 µM).
Under “nuclear SOX9 intensity”, CCN(CC)C(=O)/C(C#N)=C/c1cc(O)c(O)c([N+](=O)[O-])c1 is recorded as 106 % of DMSO and 95.6 % of DMSO (mouse MPNST tumor cells; high-content immunofluorescence imaging, item: nuclear SOX9; 10 µM, 12 h, mean of 2 replicates; reference: DMSO control, higher = more nuclear SOX9).

For quick reference, copied from above (series 1):
The remaining compound of c1ccc(/N=c2/nc(N3CCN(C(c4ccccc4)c4ccccc4)CC3)nc(Nc3ccccc3)[nH]2)cc1 is reported as > 99%.
The remaining compound of CCN1CCN(C(=O)c2cc3c(=O)n4cc(C)ccc4nc3n2C)CC1 is reported as 94.2%.
